Assay results collected from several papers.
Each line is one published result; not all experiments were run side by side.
Sample: plasma

SMILES | assay | system | setting | quantity | result
CC[C@H](C)[C@H](NC(=O)[C@H](CC(C)C)NC(=O)[C@H](Cc1c[nH]c2ccccc12)NC(=O)[C@H](C)NC(=O)[C@@H](NC(=O)[C@H](Cc1ccccc1)NC(=O)[C@H](CC(=O)O)NC(=O)[C@H](CCCNC(=N)N)NC(=O)[C@H](C)NC(=O)[C@H](C)NC(=O)[C@H](CC(C)C)NC(=O)[C@H](C)NC(=O)[C@H](CC(=O)O)NC(=O)[C@H](CC(C)C)NC(=O)[C@@H](NC(=O)[C@@H](NC(=O)[C@H](C)NC(=O)[C@H](CC(C)C)NC(=O)[C@H](CCC(=O)O)NC(=O)[C@H](CO)NC(=O)[C@H](CO)NC(=O)[C@H](Cc1ccccc1)NC(=O)[C@@H](NC(=O)CNC(=O)[C@H](CCC(=O)O)NC(=O)CNC(=O)[C@@H](N)Cc1cnc[nH]1)[C@@H](C)O)[C@@H](C)O)[C@@H](C)CC)[C@@H](C)CC)C(=O)N[C@@H](C)C(=O)N[C@H](C(=O)N[C@@H](CCCCN)C(=O)N[C@H](C(=O)N[C@H](C(=O)N[C@@H](CC(=O)O)C(=O)N[C@@H](CCCCN)C(=O)N[C@@H](CCCCN)C(=O)N[C@@H](CCCCN)C(=O)N[C@@H](CCCCN)C(=O)N[C@@H](CCCCN)C(=O)N[C@@H](CCCCN)C(N)=O)[C@@H](C)O)[C@@H](C)CC)[C@@H](C)O |  | healthy human subjects | intravenous infusion, 1 mg, 15 min infusion | tmax | 25.2 min
CCc1c2c(nc3ccc(O)cc13)-c1cc3c(c(=O)n1C2)COC(=O)[C@]3(O)CC |  | human patients | intravenous, 6 mg/m^2 of parent drug | Tmax | 60 min
CC[C@H](C)[C@H](NC(=O)[C@H](CC(C)C)NC(=O)[C@H](Cc1c[nH]c2ccccc12)NC(=O)[C@H](C)NC(=O)[C@@H](NC(=O)[C@H](Cc1ccccc1)NC(=O)[C@H](CC(=O)O)NC(=O)[C@H](CCCNC(=N)N)NC(=O)[C@H](C)NC(=O)[C@H](C)NC(=O)[C@H](CC(C)C)NC(=O)[C@H](C)NC(=O)[C@H](CC(=O)O)NC(=O)[C@H](CC(C)C)NC(=O)[C@@H](NC(=O)[C@@H](NC(=O)[C@H](C)NC(=O)[C@H](CC(C)C)NC(=O)[C@H](CCC(=O)O)NC(=O)[C@H](CO)NC(=O)[C@H](CO)NC(=O)[C@H](Cc1ccccc1)NC(=O)[C@@H](NC(=O)CNC(=O)[C@H](CCC(=O)O)NC(=O)CNC(=O)[C@@H](N)Cc1c[nH]cn1)[C@@H](C)O)[C@@H](C)O)[C@@H](C)CC)[C@@H](C)CC)C(=O)N[C@@H](C)C(=O)N[C@H](C(=O)N[C@@H](CCCCN)C(=O)N[C@H](C(=O)N[C@H](C(=O)N[C@@H](CC(=O)O)C(=O)N[C@@H](CCCCN)C(=O)O)[C@@H](C)O)[C@@H](C)CC)[C@@H](C)O |  | healthy human subjects | subcutaneous, 10 mg once weekly, day 36 after 6 doses, steady state, median | tmax | 1090 min
CCCOc1ccc(S(N)(=O)=O)cc1-c1nc2c(CCC)nn(C)c2c(=O)[nH]1 |  | healthy male humans | oral, 200 mg udenafil | Tmax (median) | 2 h
CC[C@H](C)[C@H](NC(=O)[C@H](CC(C)C)NC(=O)[C@H](Cc1c[nH]c2ccccc12)NC(=O)[C@H](C)NC(=O)[C@@H](NC(=O)[C@H](Cc1ccccc1)NC(=O)[C@H](CC(=O)O)NC(=O)[C@H](CCCNC(=N)N)NC(=O)[C@H](C)NC(=O)[C@H](C)NC(=O)[C@H](CC(C)C)NC(=O)[C@H](C)NC(=O)[C@H](CC(=O)O)NC(=O)[C@H](CC(C)C)NC(=O)[C@@H](NC(=O)[C@@H](NC(=O)[C@H](C)NC(=O)[C@H](CC(C)C)NC(=O)[C@H](CCC(=O)O)NC(=O)[C@H](CO)NC(=O)[C@H](CO)NC(=O)[C@H](Cc1ccccc1)NC(=O)[C@@H](NC(=O)CNC(=O)[C@H](CCC(=O)O)NC(=O)CNC(=O)[C@@H](N)Cc1c[nH]cn1)[C@@H](C)O)[C@@H](C)O)[C@@H](C)CC)[C@@H](C)CC)C(=O)N[C@@H](C)C(=O)N[C@H](C(=O)N[C@@H](CCCCN)C(=O)N[C@H](C(=O)N[C@H](C(=O)N[C@@H](CC(=O)O)C(=O)N[C@@H](CCCCN)C(=O)N[C@@H](CCCCN)C(=O)O)[C@@H](C)O)[C@@H](C)CC)[C@@H](C)O | immunoaffinity LC-MS/MS | healthy human subjects | intravenous infusion, 1 mg single dose, infused over 15 min | tmax | 37.8 min
Cn1c(=O)oc2ccc(-c3ccc(CC(C#N)NC(=O)C4CNCCCO4)c(F)c3)cc21 (stereo not drawn) |  | human volunteers | 80 mg single dose, fasted, median | Tmax | 45 min
CCc1cc(Nc2nc(-c3ccc(-n4cnc(C)c4)c(F)c3)cs2)c(C)cc1C |  | human, both sexes | oral, 400 mg once daily, day 14, multiple dose, geometric mean | Tmax | 192 min
O=C(CCc1ccc(CNC(C(=O)OC2CCCC2)C2CCCCC2)cn1)NO (stereo not drawn) |  | human | oral, 20 mg once daily, day 1, median | Tmax | 30 min
CN1CCC[C@]1(C)/C=C/S(=O)(=O)NC(=O)Nc1c2c(cc3c1CCC3)CCC2 |  | human | oral, 100 mg twice daily, day 14, multiple ascending dose | Tmax after first dose, median | 1 h
